Measurements from different studies.
Each numbered part is a random draw from the data of one study; scales do not carry over between parts.

Set 1
Target: PABPC1L2, full length, GST fusion (mouse, UniProt A0ABA7IW68)
Technique: RNAcompete
Form: RNA
Sample: in vitro
Concentration: 20 nM
Notes: 7-mer, probes averaged, single round
Reference: mean of 7-mers
Reading: higher = stronger binding
Residues (chain): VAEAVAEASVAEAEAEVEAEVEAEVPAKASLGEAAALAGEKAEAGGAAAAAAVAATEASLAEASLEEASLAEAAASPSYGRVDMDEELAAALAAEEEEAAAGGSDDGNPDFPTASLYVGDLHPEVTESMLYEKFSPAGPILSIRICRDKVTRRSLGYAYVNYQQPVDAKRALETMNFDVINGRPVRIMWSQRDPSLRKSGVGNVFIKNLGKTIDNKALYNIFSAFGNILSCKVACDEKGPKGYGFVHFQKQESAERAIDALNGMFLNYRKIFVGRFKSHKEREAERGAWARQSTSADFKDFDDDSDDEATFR
Sequence | 7-mer Z-score
GUAAGAC | -0.148
UUUGCCA | -0.293
GAUGUCG | -0.28
ACGACCU | -0.161
UAAAAAU | 10.8
GCCUUUU | -0.0808
CCCUUAC | -0.356
GGUAGUG | -0.135
GGUGUCA | -0.0681
AAGGGUU | 0.169
ACUGCUG | -0.108
UAUCCUG | -0.389
UACCCCA | -0.373
GGCGCAG | 0.173
UUGUUGA | -0.393
ACCAUCA | -0.233
UGAGUAA | 0.046
CCUCGCU | -0.452
AUGACUU | -0.267

Set 2
Target: RNA binding protein fox-1 homolog 2, RRM domain, GST-SBP tag (RBFOX2, Homo sapiens, UniProt O43251-10, residues 100-194)
Technique: RNA Bind-n-Seq
Form: RNA
Sample: in vitro
Concentration: 365 nM
Notes: natural RNA segment, single round, ends assumed
Reference: no-protein control
Reading: higher = stronger binding
All sequences stand within: GGGAGUUCUACAGUCCGACGAUC … UGGAAUUCUCGGGUGCCAA
Target sequence (chain): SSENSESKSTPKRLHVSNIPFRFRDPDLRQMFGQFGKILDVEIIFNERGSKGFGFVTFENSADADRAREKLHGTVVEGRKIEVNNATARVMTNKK
Sequence | RBNS enrichment (R)
UCAUGUGACCUGUUUGGCCCCUAACUGUCCCUUCUUUUCACUGCUUCUGUCUGACACCAUCUCCCUUUCGGCCUGAAGGUUUCAGAGAGGGUGCUCUGGGCUGGAGGGAG | 0.594
CAGCCAGCCUCUUCUAGAACCCUAGCCCAGGGACUGGAGCAGGAAAGGGACCUUCAAAGUGAAGACUGCCUUGUCCCGCAGCUCCUUCUGGCUUAGAUUGAAAAAUGGGC | 0.329
UGUAUUGCUCAGUAUUCACUUAGAAGGGUUUCUUUCUCUUUGGCCUAGUUUGUGAAGGGAUCUUCCUUUGGACUUUCUCUAAGUUGGGAGAAGAACAUUCUUUUCAAUGG | 0.265
UGUUUACACCUGGUGUCCAAUUUUGUAUUUUAAAAUGUAAUCCAUUUUUACUUCAGCUCAUCCAAAAGCAGCCAGCAGACCGGUUGACUGAGACCGGUCUGUGGCUGUGG | 0.28
UCCGCCACCAGCGGACCCACGCAGCCGGCCGCCGUUAACCAGUCACGGGUGGGGAGGUGGUGUGCAGAAGAGAUGGGGUCAAGGAAUUUAUGGAUAGAGGAAAAGCUGGU | 0.677
AGAAAUUGCUGGAUAGCGAAGUGCCACUGGGUUCUUUGCCCUCCCUUCACACCAUGGGAUAAAUCUGUAUCAAGACGGUUCUUUUCUAGAUUUCCUCUACCUUUUUGCUC | 0.347
GUCUUCUGGUAAAUGUGUGCAGGGUCAUCCUGUCUCCUGUACCUCCUGGGAAAGGGGCCGCUGCUGUCUGGUGCCCUGUGAGCUGUGAUUGAUUGCCUUUGGUCAGUAAU | 0.587
GCUGCUCCUCCAGGAAAGGGUGAGGUCCGUGCUCAGCUAUGCUUGCAGGCCUGCUGUCCUCACUCCAGAAUGAGUGCUGGCUCUGCCUCUGGCUGCAGAGUUGAGGUUGG | 0.449

Set 3
Target: Histone acetyltransferase KAT6A, winged helix 1, GST fusion (KAT6A, Homo sapiens, UniProt Q92794, residues 1-85)
Technique: protein binding microarray
Form: double-stranded DNA, one strand shown
Sample: in vitro
Concentration: not given
Notes: 8-mer, flanks averaged, mean of 2 arrays, mostly near background
Reference: not given
Reading: higher = stronger binding
Construct (chain): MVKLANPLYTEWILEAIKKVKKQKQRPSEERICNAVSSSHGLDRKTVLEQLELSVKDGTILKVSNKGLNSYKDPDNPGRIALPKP
Sequence | E-score
CTAGGAAA | -0.201
AACGCAAT | 0.239
AGTTATCG | -0.00329
CTACATGC | -0.0289
AATAGTTA | 0.0166
GCAAGGGA | -0.0727
AGTGCAAG | -0.114
CATTAGCG | 0.323
GAAGGTCC | -0.014
GGGCTTAC | 0.0831
ATATACCA | -0.202
GATATAAA | -0.291
GATTACAA | -0.101
AGATGGAT | -0.18
GCAAATCA | -0.0342
AACACTTC | -0.216
CATCCTCA | -0.0261
GGGGCGAC | 0.0858
AAGAAACT | -0.187
ATGTACGC | 0.109

Set 4
Target: Fragile X messenger ribonucleoprotein 1, C-terminal low-complexity region (Fmr1, Mus musculus, UniProt P35922)
Technique: RNA Bind-n-Seq
Form: RNA
Sample: in vitro
Concentration: 200 nM
Notes: whole 134-nt RNA, ends assumed
Together with: 150 mM LiCl
Reference: input library
Reading: higher = stronger binding
All molecules: 7-deaza-guanosine replaces G
All sequences stand within: GGGAGUUCUACAGUCCGACGAUC … UGGAAUUCUCGGGUGUCAAGG
Sequence | log2 enrichment
CUGUGCUACACAUCGUAUGUACCGAAUCGGGAAAAAAAGGAAAAAAAGGGAAAAAAAGGGGAAAGUAUUAUGUUACGCCGUUCGGAUCUG | 0.0377
UCAAGUCCUGUGCUACACAUCGUAUGUACCGAAUCGGGUGGGUUUUUGGGUGGGAAAGUAUUAUGUUACGCCGUUCGGAUCUGCACUUCC | -0.468
UGGGAGGUGGAUUUUGUUUAUUUUUUUAGCUCAUUUCCCGGGGUGGGAAUUUUUUUUUAAUAUGUGUCAUGAAUAAAGUUGUUUUUGAAA | -0.129
CUCAAGUCCUGUGCUACACAUCGUAUGUACCGAAUCGGGUUGGGGUUGGGUUGGAAAGUAUUAUGUUACGCCGUUCGGAUCUGCACUUCC | -0.171
CAAGUCCUGUGCUACACAUCGUAUGUACCGAAUCGGGAAAGGGUUUUUGGGUGGGAAAGUAUUAUGUUACGCCGUUCGGAUCUGCACUUC | -0.921
UGGGAGGUGGAUUUUGUUUAUUUUUUUAGCUCAUUUCCAGGGGUGGGAAUUUUUUUUUAAUAUGUGUCAUGAAUAAAAUUGUUUUUGAAA | -0.0406
GUCCUGUGCUACACAUCGUAUGUACCGAAUCGGGUUUUUGGGUUUUUGGGUUUUUGGGGAAAGUAUUAUGUUACGCCGUUCGGAUCUGCA | -1.11
UUUUAGGAAGCUGCAGUAAAGGAAGAUGAAGAAGAAGUUUCAGAUAAGGGCAGUGAUUCUGAAGAAGAAGAAACCAAUAGAGAUUCCCAA | -2.79

Set 5
Target: RING finger protein unkempt homolog, zinc fingers 1-6, GST-SBP tag (UNK, Homo sapiens, UniProt Q9C0B0, residues 30-357)
Chain of UniProt Q9C0B0 (30-357, looked up): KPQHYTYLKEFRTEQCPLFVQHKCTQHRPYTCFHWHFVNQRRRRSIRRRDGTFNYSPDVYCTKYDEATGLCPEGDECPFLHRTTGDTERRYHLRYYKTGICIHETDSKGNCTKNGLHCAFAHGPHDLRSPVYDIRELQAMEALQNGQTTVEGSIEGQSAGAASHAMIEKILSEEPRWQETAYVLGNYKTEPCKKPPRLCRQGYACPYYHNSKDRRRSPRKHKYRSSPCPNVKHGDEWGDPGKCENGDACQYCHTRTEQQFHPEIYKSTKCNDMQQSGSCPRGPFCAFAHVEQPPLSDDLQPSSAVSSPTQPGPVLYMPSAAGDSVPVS
Technique: RNA Bind-n-Seq
Form: RNA
Sample: in vitro
Concentration: not given
Notes: RNA with constant flanks, human and mouse sites, ends assumed
Reference: input RNA pool
Reading: higher = stronger binding
All sequences stand within: GGGAGUUCUACAGUCCGACGAUC … CAACAGAGGAUUGAGCAUCA
Sequence | bound/input enrichment [ratio]
AUGGCUUGGCUCAAGCAACAAUUUUCAGAGUGCACCCUCAUUGAUGCUACUCACAGAGACGUGGAUGUGCUGUUACUGCUUUCUAACUCUGCCUACUACGUGGCCUAUUAUGAUGAUGAA | 0.213
AUACCUUCCCAAAUUGGUAACCUGGAGGCCUUGAGAGACCUUAAUGUAAGAAGAAAUCACCUAGUACAUUUGCCUGAAGAGCUGGCGGAGUUGCCUUUGAUACGGUUAGACUUCUCAUGC | 0.576
UUCAGUGCCUCAAUUGAUGACAAGGUUGGUAGACAUUUUAAAAUGAUCGACAAUGUCUAUAAUCCUGCAGCCAUUGCUGUUGAUUGGGUGUACAAGACCAUCUACUGGACUGAUGCGGCU | 0.131
CUCACAAACAGCCAUUUGGAAAAAAAGAAGUGUGAUGAGUAUAUUCCAGGUACAACCUCCUUAGGCAUGUCUGUUUUUAACCUAAGCAACGCCAUUAUGGGCAGUGGGAUUUUGGGACUC | 0.444
GGAGCGGGUCUGGGGCUCAGCCGGCGGCCCGAAGGUGCGGCGCCAUGAAGCUGUACAGCCUUAGUGUCCUUUACAAAGGCGAUCCGAAAGCGGUGCUGCUCAAGGCCGCGUACGACGUGU | 0.116
CUCUGUAAACAGUUUGGUUCUUAGUCCUUCUCUUGUACAAAUGAUGUACUUUGAAGACCGUUAGUGUAUAACAGAGUUGUUUGUUUCCUCUUUGAUUUUAAACAGAGAAAAUAAAAGGAG | 0.689
UCUUAUGAGAACAUGCGUUUUCUGAUAACUCACAACCCCACCAAUGCGACUCUCAACAAGUUCACAGAGGAACUUAAGAAGUACGGAGUGACAACUUUGGUUCGAGUUUGUGAUGCUACA | 0.103
CAGAUUUAUACUCCUGACGUGUCUCAUUCACAGCUAAAUAAUAGGCCAUAGGACUUUUGGUAGGUUUAAACUUUUAAUUCUGUAUUUCAUGAUUAUAAGUCUUGCUAGAAUUUUUUCUAA | 2.67

A few entries again (set 1):
Sequence | 7-mer Z-score
UACCCCA | -0.373
GGCGCAG | 0.173
UUGUUGA | -0.393
ACCAUCA | -0.233
UGAGUAA | 0.046
CCUCGCU | -0.452
AUGACUU | -0.267
